Published values gathered from unrelated publications.
A part holds a random share of what one study measured. Changes are numbered by the printed parent chain.

Series 1
Target: Histone acetyltransferase KAT6A, winged helix 2, GST fusion (KAT6A, Homo sapiens, UniProt Q92794, residues 85-181)
Technique: protein binding microarray
Form: double-stranded DNA, one strand shown
Medium: in vitro
Tested at: not given
Notes: 8-mer, flanks averaged, mean of 2 arrays, mostly near background
Baseline: not given
Reading: higher = stronger binding
Target sequence (chain): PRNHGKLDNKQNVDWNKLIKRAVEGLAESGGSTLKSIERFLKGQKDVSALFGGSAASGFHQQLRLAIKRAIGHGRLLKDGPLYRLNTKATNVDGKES
Sequence | E-score
TGAGTCAA | -0.0875
ATACTAAC | -0.0519
GCTTAATA | -0.0387
AAGACCAC | -0.0182
CTAGGTGC | -0.0812
CGGCCTCA | 0.244
CAATCATA | 0.029
GCTTTAAA | -0.00816
CACGCTTC | -0.0971
ACTAACTA | -0.184
GGTGTTAC | -0.094
AGTAGAAC | -0.137
ATAGTATC | 0.027
GCTGGTAA | -0.0679
CAACTCGC | 0.11
TAGCTGCA | -0.112

Series 2
Target: Fragile X messenger ribonucleoprotein 1, C-terminal low-complexity region (Fmr1, Mus musculus, UniProt P35922)
Technique: RNA Bind-n-Seq
Form: RNA
Medium: in vitro
Tested at: 200 nM
Notes: whole 134-nt RNA, ends assumed
Added: 150 mM KCl
Baseline: input library
Reading: higher = stronger binding
All sequences stand within: GGGAGUUCUACAGUCCGACGAUC … UGGAAUUCUCGGGUGUCAAGG
Sequence | log2 enrichment
CCUGUGCUACACAUCGUAUGUACCGAAUCGGAAAAAAAGGGAAAAAAAGGAAAAAAAGGGGAAAGUAUUAUGUUACGCCGUUCGGAUCUG | -1.03
GCAGGAAGUAAAAACAAAUGGAAAUGCUUCGGAUAGUGGCAGGGGUGGGGGUUGCGAAGGAAAGGGUGGGAUGGGAGUGGGUAAAGAGUU | 0.24
GUCCUGUGCUACACAUCGUAUGUACCGAAUCGGGAAAGGGUUUUUUUGGGUUUUUGGGAAAGUAUUAUGUUACGCCGUUCGGAUCUGCAC | -0.15
ACCAUGCAGGUGGGCAUCUAAAGGAAGUGGGGCAAGGGGGGGAUAGGGAGGGGGGUAACACUUUGGGAACAGGUGGUCCCAGGUCGUUUC | 0.875
UCAAGUCCUGUGCUACACAUCGUAUGUACCGAAUCGGAAAAAGGAAAGGUUUGGAAAGUAUUAUGUUACGCCGUUCGGAUCUGCACUUCC | -1.06
GUCCUGUGCUACACAUCGUAUGUACCGAAUCGGGAAAAAGGGUUUGGGAAAAAAAGGGAAAGUAUUAUGUUACGCCGUUCGGAUCUGCAC | -0.675
CACAGACAACACGCACCCACACAGACACAGAGGGAAGGGGUUGGGAUGGGGACAGGGCGCACAGCAGGGCGGGGUAGGACCCCAGCCCCU | 1.15
UGGCCCUGGUGGCAUGCGGCGAGGAAGAGGUGGCCUCAUGGAUCGUGGUGGUCCCGGUGGAAUGUUCAGAGGUGGCCGUGGUGGAGACAG | 0.169
UAACUUUAGAGGAGGAUCUGAUGGAUAUGGCAGUGGACGUGGAUUUGGGGAUGGCUAUAAUGGGUAUGGAGGAGGACCUGGAGGUAGCAA | 0.29
CAAGUCCUGUGCUACACAUCGUAUGUACCGAAUCGGUGGAAAAAAAGGUUUUUGGAAAGUAUUAUGUUACGCCGUUCGGAUCUGCACUUC | -0.746

Series 3
Target: NFE2L3, bZIP domain (human)
Technique: DHFR protein complementation
Medium: yeast
Notes: single substitutions, most at no-binding floor
Baseline: wild-type JUN-FOS pair
Reading: higher = stronger binding
Parent: JUN, bZIP domain (human); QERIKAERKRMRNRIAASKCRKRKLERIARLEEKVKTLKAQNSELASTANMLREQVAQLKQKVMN; partner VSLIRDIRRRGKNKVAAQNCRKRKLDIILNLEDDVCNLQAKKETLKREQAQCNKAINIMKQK
Variant | binding fitness
L45H | -1.52 natural log
T48A | -1.43 natural log
I28K | -1.26 natural log
A49H | -1.58 natural log
V56D | -1.49 natural log
L31C | -1.54 natural log
K39I | -1.6 natural log
V56F | -1.35 natural log
E33V | -1.49 natural log
A46W | -1.6 natural log
E54G | -1.41 natural log
L52C | -1.39 natural log
L52I | -1.59 natural log
A57G | -1.42 natural log
T37A | -1.36 natural log
T48C | -1.26 natural log
V56N | -1.55 natural log
E32R | -1.36 natural log
V56E | -1.5 natural log
L45I | -1.51 natural log
L45E | -1.52 natural log

Series 4
Target: Transcriptional repressor CTCF (CTCF, Homo sapiens, UniProt P49711, residues 1-727, full length assumed)
Technique: protein-binding microarray
Form: double-stranded DNA, one strand shown
Medium: in vitro
Tested at: not given
Notes: k-mer, scored over probes, only values ≥0.25
Reading: higher = stronger binding
Target sequence (chain): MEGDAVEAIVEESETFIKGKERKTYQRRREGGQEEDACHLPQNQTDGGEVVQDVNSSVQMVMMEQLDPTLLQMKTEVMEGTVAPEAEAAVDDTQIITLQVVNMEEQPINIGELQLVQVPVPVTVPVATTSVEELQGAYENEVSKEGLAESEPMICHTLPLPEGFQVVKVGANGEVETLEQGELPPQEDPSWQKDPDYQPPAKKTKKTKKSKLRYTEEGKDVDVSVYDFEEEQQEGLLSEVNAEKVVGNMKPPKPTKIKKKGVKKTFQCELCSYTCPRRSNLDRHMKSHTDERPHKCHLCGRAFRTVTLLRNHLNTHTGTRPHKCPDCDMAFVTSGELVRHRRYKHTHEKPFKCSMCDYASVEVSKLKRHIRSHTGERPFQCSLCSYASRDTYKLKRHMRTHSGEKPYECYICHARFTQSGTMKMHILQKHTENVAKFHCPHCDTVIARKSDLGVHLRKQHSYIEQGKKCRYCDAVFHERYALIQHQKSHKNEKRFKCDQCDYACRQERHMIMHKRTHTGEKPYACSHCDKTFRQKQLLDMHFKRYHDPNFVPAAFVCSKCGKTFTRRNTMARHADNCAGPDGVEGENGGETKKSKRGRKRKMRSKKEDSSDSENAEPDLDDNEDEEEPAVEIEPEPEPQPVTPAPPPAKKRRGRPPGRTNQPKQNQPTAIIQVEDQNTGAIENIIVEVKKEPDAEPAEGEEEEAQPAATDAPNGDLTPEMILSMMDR
Sequence | E-score
ATATCTTA | 0.285
GTATTAAA | 0.309
TAACTATA | 0.264
ATAAAAAT | 0.282
ATAGTATA | 0.267
CAATAACA | 0.34
AAACGGCC | 0.333
AAGTATAA | 0.305
ATAAACGC | 0.258
ACAGTACA | 0.251
AGGAATAT | 0.267
AAATAGTA | 0.251
ACATTATA | 0.336
ATAACATC | 0.274
ACTATAAA | 0.308
AATATACC | 0.281

Series 5
Target: ABI1, truncated, D143A, DHFR fusion (Arabidopsis thaliana)
Technique: DHFR PCA, deep sequencing
Medium: yeast
Notes: methotrexate growth selection, single substitutions
Added: (+)-ABA 4.8 µM
Baseline: wild-type fitted maximum
Reading: higher = stronger binding
Parent: PYL1, truncated, DHFR fusion (Arabidopsis thaliana); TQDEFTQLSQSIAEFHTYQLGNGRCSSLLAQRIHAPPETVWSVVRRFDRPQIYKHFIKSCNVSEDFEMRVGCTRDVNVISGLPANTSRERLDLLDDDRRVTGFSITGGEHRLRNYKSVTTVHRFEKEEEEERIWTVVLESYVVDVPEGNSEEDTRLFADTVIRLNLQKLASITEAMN; partner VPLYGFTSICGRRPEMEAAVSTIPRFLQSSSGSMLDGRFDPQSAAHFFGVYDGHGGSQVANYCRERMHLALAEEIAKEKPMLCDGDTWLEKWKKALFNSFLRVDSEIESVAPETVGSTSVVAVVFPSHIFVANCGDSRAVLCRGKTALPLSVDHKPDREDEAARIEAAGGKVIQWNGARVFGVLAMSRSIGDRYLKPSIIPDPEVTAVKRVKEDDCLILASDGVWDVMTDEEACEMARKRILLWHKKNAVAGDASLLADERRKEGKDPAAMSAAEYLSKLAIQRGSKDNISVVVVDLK
Variant | relative binding score [%]
E131R | 76.1
C72L | 25.5
Q10F | 32.3
T154N | 3.51
L112F | 48.6
L169N | 17.6
D65F | 38.3
A170G | 34.9
L169W | 2.35
Q19T | 75.8
I162H | 0.965
L28E | -5.59
A84G | 67.3
L156E | 36.4
N85L | 77.1
V100K | -12.4
I57D | -0.819
D153G | -6.02
L29Y | -3.68
M68G | 39.9
R46V | 11.2
V70K | 38.2
P37K | -9.14
Q10M | 59.6
S117P | 16.8

Series 6
Target: CCNA2, cyclin fold, Cln2 fusion (human)
Technique: yeast growth competition, sequencing
Medium: yeast
Notes: strong parent motif
Baseline: not given
Reading: higher = stronger binding
Parent: SCAPER docking peptide (human); SNARRSLNFGGST; partner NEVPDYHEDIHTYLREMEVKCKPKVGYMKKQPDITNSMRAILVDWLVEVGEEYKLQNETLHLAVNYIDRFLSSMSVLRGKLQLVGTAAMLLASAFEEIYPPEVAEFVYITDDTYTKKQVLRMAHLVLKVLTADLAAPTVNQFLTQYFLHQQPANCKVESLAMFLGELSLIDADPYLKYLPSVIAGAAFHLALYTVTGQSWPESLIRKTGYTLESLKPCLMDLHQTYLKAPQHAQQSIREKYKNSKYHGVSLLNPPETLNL
Variant | normalised enrichment score
N2M | 4.95
L7K | 0.917
T13C | 6.58
N2Q | 6.48
R4I | 3.78
G11T | 6.82
R4K | 5.49
R4M | 2.7
S1V | 6.59
F9P | 1.29
S6H | 6.72
G10R | 4.92
R5S | 1.26
L7M | 1.14
T13Y | 6.34
T13E | 6.45
S6W | 5.13
G11Y | 6.15
R5H | 1.54
R4Y | 3.41
S6V | 6.01
N2E | 4.38
G11C | 6.47
G10P | 4.86
S6Q | 6.61

Excerpt of the above (series 5):
Variant | relative binding score [%]
V70K | 38.2
L28E | -5.59
D153G | -6.02
I57D | -0.819
L169N | 17.6
P37K | -9.14
T154N | 3.51
A170G | 34.9
I162H | 0.965
S117P | 16.8
Q19T | 75.8
V100K | -12.4
L169W | 2.35
M68G | 39.9
R46V | 11.2
